Assay results gathered from unrelated publications.
Compare with care: the assays were run in different laboratories. ± marks the error that the study gave.
Target: Cannabinoid receptor 2 (CNR2, Homo sapiens, UniProt P34972)
Sequence of UniProt P34972 (whole entry, looked up): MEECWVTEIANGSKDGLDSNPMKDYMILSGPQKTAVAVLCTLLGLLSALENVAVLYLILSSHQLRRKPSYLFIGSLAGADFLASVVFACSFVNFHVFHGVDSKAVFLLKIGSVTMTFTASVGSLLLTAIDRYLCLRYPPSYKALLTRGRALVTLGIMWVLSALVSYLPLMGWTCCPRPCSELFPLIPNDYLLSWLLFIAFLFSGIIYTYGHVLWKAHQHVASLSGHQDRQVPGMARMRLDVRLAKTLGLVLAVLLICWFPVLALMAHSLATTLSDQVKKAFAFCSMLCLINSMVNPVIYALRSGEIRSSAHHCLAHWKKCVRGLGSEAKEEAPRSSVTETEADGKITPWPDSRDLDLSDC

Structure (SMILES) | assay | test system | setting | how to read | measurement | value
CCCCCn1cc(C(=O)c2ccc3c(c2)CC(C)(C)C3)c2ccccc21 | β-arrestin recruitment, agonist, BRET | HEK-293T |  |  | Emax | 80.8%
CCOC(=O)C(CC)(CC)NC(=O)c1ccc(C2CC2)c(Cc2ccc(F)cc2)n1 | cAMP, agonist, TR-FRET | CHO |  |  | Emax | 102%
COC1CC(=O)N(C)C=CCCCC(=O)N(C)C(C(C)C)C(=O)N(C)C(CC(C)C)C(=O)OC(C(C)C)CC(C)C1 (stereo not shown) | β-arrestin recruitment, antagonist |  | 20 µM |  | inhibition | > 70%
CCOC(=O)C(CC)(CC)NC(=O)c1ccc(N2CC(OC)C2)c(OC[C@H]2C[C@@H]2CO)n1 | cAMP, agonist, TR-FRET | CHO |  |  | Emax | -130%
CC(O)CCn1cc(C(=O)c2cccc3ccccc23)c2ccccc21 (stereo not shown) | agonist | CHO-hCB2 cell membranes | 10 µM |  | Emax | 48.2 ± 10.9 fmol/mg
CCCCCn1cc(C(=O)c2cccc3ccccc23)c2ccccc21 | β-arrestin recruitment, agonist, BRET | HEK-293T |  |  | Emax | 75.1%
COC(=O)c1ccc2c(C=C3C(=O)C4CCN3CC4)cn(Cc3ccccc3)c2c1 | cAMP level | CHO expressing human CB2 | together with: forskolin | negative means cAMP increase | maximal inhibition | -200 ± 8.6%
CCCCCn1cc(C(=O)c2cccc3ccccc23)c2cc(O)ccc21 | agonist | CHO-hCB2 cell membranes | 10 µM |  | Emax | 38 ± 10.4 fmol/mg
CCOC(=O)[C@@](CC)(CCCSCCOCCOCCNc1ccc([N+](=O)[O-])c2nonc12)NC(=O)c1ccc(C2CC2)c(Cc2ccc(F)cc2)n1 | cAMP, agonist |  |  |  | Emax | 84%
CC1=C[C@H]2c3c(O)cc(CCc4ccccc4)cc3OC(C)(C)[C@@H]2CC1 | GTPγS binding, agonist, radiometric |  | cell membranes |  | Emax | 116%
CCOC(=O)[C@](CC)(CCCSCCOCCOCCNC(=O)c1ccc(-c2c3ccc(=N)c(S(=O)(=O)O)c-3oc3c(S(=O)(=O)O)c(N)ccc23)c(C(=O)O)c1)NC(=O)c1ccc(C2CC2)c(Cc2ccc(F)cc2)n1 | radioligand binding |  |  | relative to: R over S enantiomer | enantiomer affinity ratio | 1.4 fold
CCCCCn1cc(C(=O)c2ccc3ccccc3c2)c2ccccc21 | Gαi1 engagement, agonist, BRET |  |  | relative to: CB1 minus CB2 | Emax difference | ~30%
CCCCn1cc(C(=O)c2cccc3ccccc23)c2cc(O)ccc21 | agonist | CHO-hCB2 cell membranes | 10 µM |  | Emax | 17.6 ± 5.7 fmol/mg

Some of these lines once more:
Structure (SMILES) | assay | test system | setting | how to read | measurement | value
CCCCCn1cc(C(=O)c2cccc3ccccc23)c2cc(O)ccc21 | agonist | CHO-hCB2 cell membranes | 10 µM |  | Emax | 38 ± 10.4 fmol/mg
